Measurements pooled from the literature.
Compare with care: the assays were run in different laboratories. ± gives the spread as reported.

C[N+](C)(C)[C@@H](Cc1c[nH]c(=S)[nH]1)C(=O)[O-]
decrease in tissue partition coefficient (rat treated with 1,25-dihydroxyvitamin D3, spleen; intravenous; baseline: untreated control rats): 69%

CN[C@@](C)(C[18F])C(=O)O
tumour uptake (SCID mice (MDA-MB-468 xenograft); 30 min after injection): 3.9 ± 0.5 %ID/g

O=C1Nc2ccc(Cl)cc2[C@@](C#CC2CC2)(C(F)(F)F)O1
tissue concentration (LC-MS/MS; rhesus monkey both sexes, brain; dose not given, 1 day after 10-day dosing): > 150 ng/g

CCCCCOc1ccc(-c2ccc(-c3ccc(C(=O)N[C@H]4C[C@@H](O)[C@@H](O)NC(=O)[C@@H]5[C@@H](O)[C@@H](C)CN5C(=O)[C@H]([C@@H](C)O)NC(=O)[C@H]([C@H](O)[C@@H](O)c5ccc(O)cc5)NC(=O)[C@@H]5C[C@@H](O)CN5C(=O)[C@H]([C@@H](C)O)NC4=O)cc3)cc2)cc1
AUC(0-24) steady state mean (patients aged sample A to <sample B years, plasma; intravenous, loading 200 then 100 mg daily): 83800 ng·h/mL

O=c1nc(NO)ccn1[C@@H]1O[C@H](CO)[C@@H](O)[C@H]1O
biotransformation and biodistribution (microdialysis; pregnant rat, blood, fetus, placenta, amniotic fluid; iv, 100 mg/kg of molnupiravir, added: NBMPR 10 mg/kg; baseline: molnupiravir alone): no effect

CC(C)C[C@H](NC(=O)[C@H](CCC(N)=O)NC(=O)[C@H](CCCNC(=N)N)NC(=O)[C@H](CO)NC(=O)[C@H](CO)NC(=O)[C@H](CC(C)C)NC(=O)[C@@H](NC(=O)CNC(=O)[C@@H]1CCCN1C(=O)[C@@H](N)CCCNC(=N)N)C(C)C)C(=O)NCC(=O)N[C@@H](CC(C)C)C(=O)N1CCC[C@H]1C(=O)NCC(=O)N1CCC[C@H]1C(=O)N1CCC[C@H]1C(=O)N[C@@H](CC(=O)O)C(=O)N[C@H](C(=O)N1CCC[C@H]1C(=O)N[C@@H](CC(=O)O)C(=O)N[C@@H](Cc1c[nH]cn1)C(=O)N[C@@H](C)C(=O)N[C@@H](C)C(=O)N[C@@H](Cc1ccc(O)cc1)C(=O)N[C@@H](Cc1c[nH]cn1)C(=O)N1CCC[C@H]1C(=O)N[C@@H](Cc1ccccc1)C(=O)O)C(C)C
change in serum concentration (LC-MS/MS; human serum; concentration not given, 4 h, room temperature, tube without gel separator; baseline: initial concentration): 139 ± 52%

CC[C@H](C)[C@H](NC(=O)[C@@H](N)CCCNC(=N)N)C(=O)N[C@H](C(=O)N1CCC[C@H]1C(=O)N[C@@H](C)C(N)=O)C(C)C
MRT (healthy humans, both sexes, plasma; intravenous infusion, 6.5 mg/kg daily, day 7, multiple doses, 4 min infusion): 3 min

O=C(NCCCCCn1ccc2ccc(F)cc21)Oc1ccccc1
inhibition of degradation (porcine liver S9 fraction; 20 µM, 30 min, added: BNPP 1 mM): 46%

Cc1sc2c(c1C)C(c1ccc(Cl)cc1)=N[C@@H](CC(=O)OC(C)(C)C)c1nnc(C)n1-2
recovery (Ringer's with 10% beta-cyclodextrin; time not given, plastic vessel, plastic vial; baseline: nominal 50 ng/mL): 90%

COc1cc(-c2nc(-c3ccccc3)c(-c3cccs3)[nH]2)cc(OC)c1OC(=O)C1=CN(C)C=CC1
remaining compound (C57BL/6 mouse, CES1 knockout, liver homogenate; 10 µM, 1 h, 37 °C): < 25%

CC(C)C[C@H](NC(=O)[C@H](CCC(=O)O)NC(=O)[C@H](CCC(=O)O)NC(=O)[C@H](CC(=O)O)NC(=O)[C@H](CCC(=O)O)NC(=O)[C@H](CCC(=O)O)NC(=O)[C@H](CCC(=O)O)NC(=O)[C@@H](N)CC(=O)O)C(=O)O
plasma concentration (rat, plasma; intravenous, 11.0 mg/kg single dose, 90 min): 123 ng/mL

Cc1cnc(C(=O)N[C@H]2CCCCC/C=C\[C@@H]3C[C@@]3(C(=O)NS(=O)(=O)C3CC3)NC(=O)[C@@H]3C[C@@H](Oc4nc5ccccc5c5ccccc45)CN3C2=O)cn1
AUC(0-24) (healthy human volunteers, plasma; oral, dose not given, warfarin interaction study; baseline: given without warfarin): 5300 ng·h/mL

O[C@H]1CCCN[C@@H]1CCCn1cnc2c(Cl)c(Cl)ccc21
Tmax (human, plasma; oral, 300 mg, single dose, healthy volunteers): 2.5 h

CCCCCOc1ccc(-c2cc(-c3ccc(C(=O)N[C@H]4C[C@@H](O)[C@@H](O)NC(=O)[C@@H]5[C@@H](O)[C@@H](C)CN5C(=O)[C@H]([C@H](O)CC(N)=O)NC(=O)[C@H]([C@H](O)[C@@H](O)c5ccc(O)c(OS(=O)(=O)O)c5)NC(=O)[C@@H]5C[C@@H](O)CN5C(=O)[C@H]([C@@H](C)O)NC4=O)cc3)no2)cc1
weight-normalised steady-state clearance (human paediatric patients 2 to 5 years, plasma; intravenous, 4.5 mg/kg once daily, day 7, geometric mean): 0.313 mL/min/kg

O=c1[nH]c(Cc2ccccn2)nc2c1cnn2C1CCOCC1
Tmax (healthy men, extensive metabolizers, plasma; oral, 10 mg single dose, tablet, median): 0.5 h

Cc1cc(C)c(/C=C2\C(=O)Nc3ccccc32)[nH]1
maximum tolerated concentration (dose-limiting toxicity; zebrafish embryos, water; immersion, 72 h): 2 µM

CC(C)C(=O)OC[C@H]1O[C@@H](n2ccc(NO)nc2=O)[C@H](O)[C@@H]1O
remaining compound (rat blood dialysate; 250 ng/mL, 4 weeks, -20 °C, long-term storage, added: NHC 1000 ng/mL): 95.69 ± 0.04%

[123I]c1cncc(OC[C@@H]2CCN2)c1
tissue/plasma ratio (SPECT; human, high plasma nicotine, Pons; intravenous; baseline: plasma): 17.8

O=c1c(O[C@@H]2O[C@H](CO)[C@@H](O)[C@H](O)[C@H]2O)c(-c2ccc(O)c(O)c2)oc2cc(O)cc(O)c12
PXR protein level increase (rat, liver; intravenous, 5 mg/kg, 7 days; baseline: control): 69.7%

NC(=O)c1nc(F)c[nH]c1=O
solubility (UV-Vis spectrophotometry; supercritical CO2; 120 min, 328 K, 30 MPa, 850.83 kg/m^3): 2330 µg/mL

CC(=O)O[C@@]12CO[C@@H]1C[C@H](O)[C@@]1(C)C(=O)[C@H](O)C3=C(C)[C@@H](OC(=O)[C@H](O)[C@@H](NC(=O)OC(C)(C)C)c4ccccc4)C[C@@](O)([C@@H](OC(=O)c4ccccc4)[C@H]21)C3(C)C
body weight loss (LNCaP xenograft mice; maximally tolerated dose × 3, 21 days): ~30%

CCCCCCCCCCCC(=O)NCCCC[C@H](NC(=O)[C@@H](NC(=O)[C@@H](NC(=O)[C@H](C)NC(=O)[C@H](C)NC(=O)[C@H](CCCCN)NC(=O)[C@H](CCCCN)NC(=O)[C@H](CS)NC(=O)[C@H](CCCCN)NC(=O)[C@@H]1CCCN1C(=O)[C@H](CC(C)C)NC(=O)[C@@H](NC(=O)[C@H](Cc1c[nH]c2ccccc12)NC(=O)[C@H](CC(C)C)NC(=O)[C@@H](N)CCCCN)C(C)C)C(C)C)C(C)C)C(N)=O
fast compartment volume (three-compartment model; Sprague Dawley rat, plasma; intravenous, 2.5 mg): 12 mL

CC1(C)S[C@@H]2[C@H](NC(=O)[C@@H](C(=O)O)c3ccsc3)C(=O)N2[C@H]1C(=O)O
measured concentration (rat plasma; 8000 ng/mL, -20 °C to room temperature, three freeze-thaw cycles): 7960 ± 95 ng/mL

CC(=O)N[C@H](CCCCNC(=O)C(C)F)C(=O)N[C@@H](CS)C(=O)N[C@@H](CS)C(=O)N[C@@H](CCC(=O)O)C(=O)N[C@@H](Cc1c[nH]cn1)C(=O)N[C@H](Cc1ccccc1)C(=O)N[C@@H](CCCNC(=N)N)C(=O)N[C@@H](Cc1c[nH]c2ccccc12)C(=O)N[C@@H](CS)C(=O)N[C@@H](CCCNC(=N)N)C(=O)N1CCC[C@H]1C(=O)N[C@H](C(N)=O)C(C)C (some centres unmarked) [fluorine-18 labelled]
liver uptake (C57BL/6 mice, B16-F10 tumour, liver; intravenous, 2 h): 1.97 ± 0.17 %ID/g

CC[C@@]1(O)C(=O)OCc2c1cc1n(c2=O)Cc2cc3c(CN(C)C)c(O)ccc3nc2-1
AUC(0-inf) ratio (human patients, plasma; oral, 2.5 mg daily for 5 days, MTD arm, daily dosing, added: pazopanib; baseline: with pazopanib over alone): 1.48

CC(C)C[C@@H]1NC(=O)CNC(=O)[C@@H]2CCCN2C(=O)CNC(=O)[C@H](CCCNC(=N)N)NC(=O)[C@H](Cc2ccccc2)NC(=O)CNC(=O)[C@H](Cc2ccc(O)cc2)NC(=O)CNC(=O)[C@H](CCCNC(=N)N)NC(=O)[C@H](C)NC(=O)[C@H](CCCNC(=N)N)NC(=O)[C@H](Cc2ccccc2)NC(=O)[C@@H](N)CSSC[C@@H](C(=O)O)NC1=O
stability time (RP-HPLC; MDCK cell lysate; pH 7.4, 37 °C): > 23 h

O=C(CC(=O)c1ccccc1)c1ccccc1
terminal half-life (male C57BL/6J mouse, Nrf2 wild type, plasma; oral, 500 mg/kg): 6 h

O=S(=O)(O)Oc1ccc(-c2cccc(Cl)c2)cc1Cl
dose fraction in tissues (Sprague-Dawley rat (male), liver, serum, kidneys, lungs, brain; iv, 575 µg/kg, 3 min): ~95%

CC1N=C(c2ccccc2F)c2cc(N3CCCCC3)ccc2NC1=O (centres unmarked)
solubility (shake flask; PBS; 24 h, pH 7.4): > 100 µM

CSCC[C@@H]1NC(=O)[C@H](CC(=O)O)NC(=O)CNC(=O)[C@H](CCCNC(=N)N)NC(=O)[C@H](C)NC(=O)[C@H](CCC(=O)O)NC(=O)[C@H](CCCNC(=N)N)NC(=O)[C@@H]2CSSC[C@@H]3NC(=O)[C@H](CO)NC(=O)[C@H]([C@@H](C)O)NC(=O)[C@@H]4CCCN4C(=O)[C@H](C)NC(=O)[C@H](Cc4c[nH]c5ccccc45)NC(=O)[C@H](CC(=O)O)NC(=O)CNC(=O)[C@H](CCCNC(=N)N)NC(=O)CNC(=O)[C@H](CCC(N)=O)NC(=O)[C@@H]4CCCN4C(=O)[C@@H](NC(=O)CNC(=O)C(C)F)CSSC[C@H](NC(=O)CNC(=O)[C@H](C)NC(=O)[C@H](CC(C)C)NC(=O)[C@H](CSSC[C@@H](C(=O)NCC(N)=O)NC(=O)[C@H]([C@@H](C)O)NC(=O)[C@H](CCCNC(=N)N)NC(=O)[C@@H]4CCCN4C1=O)NC(=O)[C@H](CC(=O)O)NC(=O)[C@H](CO)NC(=O)[C@H](CC(=O)O)NC(=O)[C@H](CCC(N)=O)NC(=O)[C@H](CO)NC3=O)C(=O)N[C@@H](C(C)C)C(=O)N2 (some centres unmarked) [fluorine-18 labelled]
tissue uptake (nude mice U-87 MG xenograft, blood; intravenous, 0.5 h): 0.64 ± 0.07 %ID/g

CCCCCCCCCCCC[N+](C)(C)Cc1ccccc1
intrinsic clearance (substrate depletion; human liver microsomes; 0.5 µM, 0 to 3 h, 37 °C, added: NADPH): 1.09 mL/h/mg protein

CCCCCOc1ccc(-c2ccc(-c3ccc(C(=O)N[C@H]4C[C@@H](O)[C@@H](O)NC(=O)[C@@H]5[C@@H](O)[C@@H](C)CN5C(=O)[C@H]([C@@H](C)O)NC(=O)[C@H]([C@H](O)[C@@H](O)c5ccc(O)cc5)NC(=O)[C@@H]5C[C@@H](O)CN5C(=O)[C@H]([C@@H](C)O)NC4=O)cc3)cc2)cc1
AUC steady state (human neonates and infants, plasma; intravenous, 1.5 mg/kg/day after 3 mg/kg loading, 0-24 h): 84300 ng·h/mL
